Measurements pooled from the literature.
Every numbered part comes from another study and shows a few of its results, in no order.
Sequence of UniProt P10914 (1-114, looked up): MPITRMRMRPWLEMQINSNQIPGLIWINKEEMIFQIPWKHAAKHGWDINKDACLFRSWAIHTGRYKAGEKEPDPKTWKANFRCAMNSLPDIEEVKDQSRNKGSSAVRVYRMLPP
Sequence of UniProt Q14863 (311-611, looked up): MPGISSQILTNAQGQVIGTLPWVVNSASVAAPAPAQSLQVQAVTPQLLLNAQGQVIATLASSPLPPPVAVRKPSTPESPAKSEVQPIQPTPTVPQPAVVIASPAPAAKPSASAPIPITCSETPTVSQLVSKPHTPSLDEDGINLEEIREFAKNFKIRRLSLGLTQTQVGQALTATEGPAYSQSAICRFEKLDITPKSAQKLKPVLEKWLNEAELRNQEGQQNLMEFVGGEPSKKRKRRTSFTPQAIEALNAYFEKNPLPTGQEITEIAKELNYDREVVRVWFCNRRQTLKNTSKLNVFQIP

Block 1
Target: Ras GTPase-activating protein-binding protein 1, C-terminal RGG region (G3BP1, Homo sapiens, UniProt Q13283)
Sequence of UniProt Q13283 (whole entry, looked up): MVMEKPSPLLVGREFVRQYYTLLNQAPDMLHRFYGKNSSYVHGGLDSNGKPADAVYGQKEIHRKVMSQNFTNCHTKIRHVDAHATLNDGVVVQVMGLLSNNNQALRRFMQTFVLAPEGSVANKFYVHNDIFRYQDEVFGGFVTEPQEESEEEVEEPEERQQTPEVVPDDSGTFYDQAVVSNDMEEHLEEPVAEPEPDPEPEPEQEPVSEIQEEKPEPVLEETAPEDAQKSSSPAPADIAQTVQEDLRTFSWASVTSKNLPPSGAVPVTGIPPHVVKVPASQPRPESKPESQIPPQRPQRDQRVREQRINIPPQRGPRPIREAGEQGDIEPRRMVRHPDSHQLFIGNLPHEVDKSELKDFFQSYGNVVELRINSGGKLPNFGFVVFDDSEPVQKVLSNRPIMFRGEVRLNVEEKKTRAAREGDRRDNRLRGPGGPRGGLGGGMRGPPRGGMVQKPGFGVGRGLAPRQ
Technique: RNA Bind-n-Seq
Molecule type: RNA
Medium: in vitro
Concentration: 1 µM
Notes: whole 134-nt RNA, ends assumed
With: 150 mM KCl
Reference: input library
Reading: higher = stronger binding
All sequences stand within: GGGAGUUCUACAGUCCGACGAUC … UGGAAUUCUCGGGUGUCAAGG
Oligonucleotide	log2 enrichment
AUGUUCUUGAAUACUUAGCAAACAUACCAGCAUCCCAAAGUCACCAAGAUAAACCCUCCUACUCCAACAUCACAUGAUCUUCUAAUUCUA	-0.726
UGGGAGGUGGAUUUUGUUUAGUUUUUUAGCUCAUUUCCAGGGGUGGGAAUUUUUUUUUAAUAUGUGUCAUGAAUAAAGUUGUUUUUGAAA	1.89
UUUGCUGAUUUCUGGCUGGCGGAUCAGCUGAACAGCCUGUCAGUGAUACUGAUGGACCUGGAAUAUAUGAUCUGCUUCUACAGUUUGGAG	-2.44
UGCCUGUAUGGAGUGGAAUGAAUGUUGCUGGUGUCUCUCUGAAGACUCUGCACCCAGAUUUAGGGACUGAUAAAGAUAAGGAACAGUGGA	-0.944
CAAGUCCUGUGCUACACAUCGUAUGUACCGAAUCGGGAAAGGGAAAAAGGGUGGGAAAGUAUUAUGUUACGCCGUUCGGAUCUGCACUUC	1.76
CCUGUGCUACACAUCGUAUGUACCGAAUCGGGCCCCCCGGGGCCCCCCGGGCCCCCCGGGAAAGUAUUAUGUUACGCCGUUCGGAUCUGC	-2.11
UGGGAGGUGGAUUUUGUUUAUUUUUUUAGCUCAUUUCCAGGGGUGGGAAUUAUUUUUUAAUAUGUGUCAUGAAUAAAGUUGUUUUUGAAA	3.53
GUCCUGUGCUACACAUCGUAUGUACCGAAUCGGGGAAAAAGGGAAAAAGGAAAAAGGGAAAGUAUUAUGUUACGCCGUUCGGAUCUGCAC	-1.2

Block 2
Target: PABPC1L2, full length, GST fusion (mouse, UniProt A0ABA7IW68)
Technique: RNAcompete
Molecule type: RNA
Medium: in vitro
Concentration: 20 nM
Notes: 7-mer, probes averaged, single round
Reference: mean of 7-mers
Reading: higher = stronger binding
Target sequence (chain): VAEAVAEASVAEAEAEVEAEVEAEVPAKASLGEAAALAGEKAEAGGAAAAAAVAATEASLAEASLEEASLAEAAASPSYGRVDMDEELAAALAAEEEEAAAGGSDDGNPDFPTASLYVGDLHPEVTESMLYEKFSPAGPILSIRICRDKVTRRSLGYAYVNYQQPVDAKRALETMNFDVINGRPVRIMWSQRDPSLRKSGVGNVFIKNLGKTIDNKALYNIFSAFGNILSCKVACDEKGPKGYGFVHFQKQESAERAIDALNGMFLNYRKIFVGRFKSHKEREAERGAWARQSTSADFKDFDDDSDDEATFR
Oligonucleotide	7-mer Z-score
ACGUUCU	-0.347
UUCACAC	-0.202
GGUCCGU	-0.104
UGAGACA	-0.0718
GACCUCU	-0.278
AAUACGA	0.51
UUGAAGU	-0.186
UUUUACU	-0.151

Block 3
Target: Replicase polyprotein 1ab, nsp13 helicase (rep, Severe acute respiratory syndrome coronavirus 2, UniProt P0DTD1)
Action: inhibitor
Concentration: 20 µM
Structure (SMILES)	inhibition
O=c1n(CC2CO2)c(=O)n(CC2CO2)c(=O)n1CC1CO1 (stereo not shown)	3.71%
Nc1ccc(C(=O)O)c(O)c1	10.1%
Cc1[nH]cnc1CN1CCc2c(c3ccccc3n2C)C1=O	-2.03%
CCCC(CCC)C(=O)O[C@H]1C[C@H]2CC[C@@H](C1)[N+]2(C)C	-0.56%
CO[C@H]1/C=C\C=C(/C)C(=O)NC2=CC(=O)C(NCCN(C)C)=C(C[C@@H](C)C[C@H](OC)[C@H](O)[C@@H](C)/C=C(\C)[C@@H]1OC(N)=O)C2=O	15.6%
O=C1c2ccccc2C(=O)c2ccccc21	4.7%
O=C(NCCN1CCOCC1)c1ccc(Cl)cc1	9.94%
NC1(c2ccc(-c3nc4ccn5c(=O)[nH]nc5c4cc3-c3ccccc3)cc2)CCC1	4.72%
Cc1cc2ncc(C(=O)NCC(C)(C)NCC(=O)N3CCC[C@H]3C#N)cn2n1	-1.18%
Nc1nccc2c1ncn2[C@@H]1O[C@H](CO)[C@@H](O)[C@H]1O	5.57%
COc1ccc(C(=O)N2CCN(c3ccc4c(c3)CCC(=O)N4)CC2)cc1OC	3.15%
Oc1ncnc2[nH]ncc12	-0.69%
CC[N+](C)(CC)CCOC(=O)C(O)(c1ccccc1)C1CCCCC1 (stereo not shown)	5.65%
NCCS	4.25%
COc1cc2c(cc1OC)CN(CCc1ccc(NC(=O)c3cccc4c(=O)c5cccc(OC)c5[nH]c34)cc1)CC2	28.4%
C[C@@]12C[C@@]3(O)O[C@@H](O1)[C@]1(COC(=O)c4ccccc4)[C@H]3C[C@@]12O[C@@H]1O[C@H](CO)[C@@H](O)[C@H](O)[C@H]1O	8.58%
O=C(NC(=O)c1c(F)cccc1Cl)NC1c2ccccc2-c2ccccc21	2.01%
O=C(CCCN1CCC2(CC1)C(=O)NCN2c1ccccc1)c1ccc(F)cc1	2.52%
CC1=C(C(=O)Nc2cc3cn[nH]c3cc2F)C(c2ccc(C(F)(F)F)cc2)CC(=O)N1 (stereo not shown)	4.21%
CN(C)C(=O)C(=O)c1cn(C)c2cc(Cl)c(C(=O)N3CCC(Cc4ccc(F)cc4)CC3)cc12	4.09%
C[C@H](/C=C/[C@H](C)C(C)(C)O)[C@H]1CC[C@H]2/C(=C/C=C3C[C@@H](O)C[C@H](O)C3)CCC[C@]12C	6.57%
O=C(c1ccccn1)c1cnn2c(-c3ccncc3)ccnc12	5.16%
C#C[C@]1(O)CC[C@H]2[C@@H]3CCC4=CCCC[C@@H]4[C@H]3CC[C@@]21C	8.04%
CC(C)(N)c1cc(C(=O)N[C@@H]2CCc3ccc(Oc4ccnc5c4CCC(=O)N5)cc3C2)cc(C(F)(F)F)c1	0.42%
O=P(O)(O)C(Cl)(Cl)P(=O)(O)O	4.1%

Block 4
Target: Replicase polyprotein 1ab, main protease (rep, Severe acute respiratory syndrome coronavirus 2, UniProt P0DTD1)
Observed: enzyme activity
Action: inhibitor
Concentration: 20 µM
Notes: primary screen
Structure (SMILES)	inhibition
CC[N+](CC)(CC)CCOc1cccc(OCC[N+](CC)(CC)CC)c1OCC[N+](CC)(CC)CC	35.3%
O=c1cc(-c2ccccc2)oc2cc(O)c(O)c(O)c12	98%
CCN1CCN(C(c2ccc(C(F)(F)F)cc2)c2ccc3cccnc3c2O)CC1 (stereo not shown)	100%

Block 5
Organism: Vesicular stomatitis virus
Observed: pseudovirus infection
Technique: FDA-approved drug library screen
Concentration: concentration not given
Notes: SARS-CoV-2 spike pseudotype
Reference: vehicle
SMILES	GFP-positive cells [%]
N.N.[Cl][Pt][Cl]	86.2
C[C@]12CC[C@@H]3c4ccc(O)cc4CC[C@H]3[C@@H]1CC[C@@H]2OC(=O)CCC1CCCC1	84.8
CN(C)CCc1c[nH]c2ccc(CS(=O)(=O)N3CCCC3)cc12.O=C(O)CC(O)C(=O)O	94.1
Cc1ccc(NC(=O)C2(c3ccc4c(c3)OC(F)(F)O4)CC2)nc1-c1cccc(C(=O)O)c1	64.3

Single results of other studies
Technique: protein-binding microarray
Molecule type: hairpin DNA
Medium: in vitro
Concentration: not given
Notes: whole hairpin DNA, median over replicate spots
Reference: not given
Reading: higher = stronger binding
Oligonucleotide	target	median fluorescence
GAGGCCCGAAAGCAAAACGCCTCCTGGCGTTTTGCTTTCGGGCCTCACAC	Interferon regulatory factor 1, DNA-binding domain (IRF1, Homo sapiens, UniProt P10914, residues 1-114)	560 a.u.
CGGACATCCCCGGGCATGTCTCCTGACATGCCCGGGGATGTCCGACACTC	Cellular tumor antigen p53, full length (TP53, Homo sapiens, UniProt P04637, residues 1-393)	12200 a.u.
GAGGCCTAGCACGGGCTGCCTCCTGGCAGCCCGTGCTAGGCCTCACACTC (5mC at 31)	Microphthalmia-associated transcription factor, full length (MITF, Homo sapiens, UniProt O75030-10, residues 1-413)	7560 a.u.
GAGGCCATAACTAGGTGCCTCCTGGCACCTAGTTATGGCCTCACACTCTT	POU domain, class 6, transcription factor 1, POU and homeodomain (POU6F1, Homo sapiens, UniProt Q14863, residues 311-611)	420 a.u.

Some of these lines once more (block 2):
Oligonucleotide	7-mer Z-score
UUCACAC	-0.202
GACCUCU	-0.278
UGAGACA	-0.0718
GGUCCGU	-0.104
ACGUUCU	-0.347
AAUACGA	0.51
UUGAAGU	-0.186
UUUUACU	-0.151
